Measured values collected from several papers.
A part holds a random share of what one study measured.

Block 1 — technique: universal PBM; form: double-stranded DNA, one strand shown; matrix: in vitro; concentration: 600 nM; reading: higher = stronger binding
Target: Sal-like protein 4, full length isoform A (SALL4, Homo sapiens, UniProt Q9UJQ4, residues 1-1053)
UniProt Q9UJQ4, sequence (whole entry, looked up): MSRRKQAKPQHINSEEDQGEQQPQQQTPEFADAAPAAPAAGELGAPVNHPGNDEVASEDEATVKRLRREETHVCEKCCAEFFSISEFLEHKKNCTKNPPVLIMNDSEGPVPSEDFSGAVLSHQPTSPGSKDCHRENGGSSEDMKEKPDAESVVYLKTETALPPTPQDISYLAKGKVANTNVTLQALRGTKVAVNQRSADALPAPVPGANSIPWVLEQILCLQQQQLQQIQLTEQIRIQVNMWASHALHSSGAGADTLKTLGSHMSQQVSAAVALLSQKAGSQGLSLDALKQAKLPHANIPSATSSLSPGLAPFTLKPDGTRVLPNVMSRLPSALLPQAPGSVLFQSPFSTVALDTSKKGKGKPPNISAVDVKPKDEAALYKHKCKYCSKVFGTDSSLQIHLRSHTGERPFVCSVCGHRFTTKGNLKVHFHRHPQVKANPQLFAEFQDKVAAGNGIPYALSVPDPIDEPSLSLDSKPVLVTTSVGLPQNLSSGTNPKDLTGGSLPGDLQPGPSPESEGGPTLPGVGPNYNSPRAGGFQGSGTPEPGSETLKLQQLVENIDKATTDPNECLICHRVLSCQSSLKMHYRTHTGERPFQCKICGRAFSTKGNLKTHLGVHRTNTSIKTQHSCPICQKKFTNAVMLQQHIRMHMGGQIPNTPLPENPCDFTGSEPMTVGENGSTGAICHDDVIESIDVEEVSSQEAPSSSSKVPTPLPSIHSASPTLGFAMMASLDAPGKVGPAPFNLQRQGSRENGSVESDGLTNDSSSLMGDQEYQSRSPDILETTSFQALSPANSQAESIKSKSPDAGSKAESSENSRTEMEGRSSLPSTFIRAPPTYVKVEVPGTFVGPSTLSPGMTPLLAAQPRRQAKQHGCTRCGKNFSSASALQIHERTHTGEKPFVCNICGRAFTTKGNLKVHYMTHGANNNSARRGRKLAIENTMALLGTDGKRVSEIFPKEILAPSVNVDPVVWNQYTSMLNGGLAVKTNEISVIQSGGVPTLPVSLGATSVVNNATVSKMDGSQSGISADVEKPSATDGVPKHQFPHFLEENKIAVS
Setting: 8-mer, flanks averaged, mean of replicates
With `ACGCATCG` the E-score was 0.0395.
`AGCACCAT` has an E-score of -0.0978.
`CTAGAGGA` has an E-score of -0.0947.
`CGGGCACC` has an E-score of -0.254.
The E-score of `GGTTCAAA` is reported as 0.0602.
For `GGCTCTAA`, the E-score was -0.0476.
The E-score of `CGACGAAG` is reported as -0.0629.
`ATTACCCA` gave an E-score of 0.0861.
`GACGCCAC` gave an E-score of -0.297.
For `AAGTTGAT`, the E-score was 0.165.
The E-score of `ATGGGATA` is reported as 0.0974.
The E-score of `GGTGCCTA` is reported as -0.227.
`GAACGTTA` gave an E-score of 0.0719.
`CGCATAGA` gave an E-score of -0.0762.
The E-score of `ACCTCCAG` is reported as -0.0919.
The E-score of `CATTATTC` is reported as 0.0959.
`ACTCTGAC` gave an E-score of -0.134.

Block 2 — technique: RNA Bind-n-Seq; form: RNA; matrix: in vitro; concentration: 200 nM; setting: whole 134-nt RNA, ends assumed; together with: 150 mM LiCl; baseline: input library; reading: higher = stronger binding; library: 7-deaza-guanosine replaces G
Target: Ras GTPase-activating protein-binding protein 1, full length (G3BP1, Homo sapiens, UniProt Q13283)
UniProt Q13283, sequence (whole entry, looked up): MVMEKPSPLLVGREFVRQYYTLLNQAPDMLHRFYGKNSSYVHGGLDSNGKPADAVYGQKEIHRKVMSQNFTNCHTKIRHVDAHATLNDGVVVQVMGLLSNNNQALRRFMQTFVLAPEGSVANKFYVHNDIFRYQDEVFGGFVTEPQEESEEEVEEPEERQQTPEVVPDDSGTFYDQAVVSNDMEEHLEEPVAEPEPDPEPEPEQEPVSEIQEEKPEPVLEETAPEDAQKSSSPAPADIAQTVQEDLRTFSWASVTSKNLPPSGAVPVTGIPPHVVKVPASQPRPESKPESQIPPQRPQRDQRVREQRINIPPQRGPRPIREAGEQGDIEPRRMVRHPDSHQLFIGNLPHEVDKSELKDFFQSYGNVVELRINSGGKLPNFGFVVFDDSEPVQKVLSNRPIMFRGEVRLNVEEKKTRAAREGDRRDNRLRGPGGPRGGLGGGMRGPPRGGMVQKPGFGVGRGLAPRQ
The log2 enrichment of `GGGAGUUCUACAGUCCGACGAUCCUCAAGUCCUGUGCUACACAUCGUAUGUACCGAAUCGGAAAGGAAAAAGGUGGAAAGUAUUAUGUUACGCCGUUCGGAUCUGCACUUCCAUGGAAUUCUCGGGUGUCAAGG` is reported as -0.614.
With `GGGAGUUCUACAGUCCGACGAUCCAAGUCCUGUGCUACACAUCGUAUGUACCGAAUCGGGUUUGGGGUUUGGGUUUGGAAAGUAUUAUGUUACGCCGUUCGGAUCUGCACUUCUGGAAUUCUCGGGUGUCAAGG` the log2 enrichment was -0.605.
The log2 enrichment of `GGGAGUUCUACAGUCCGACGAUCCUGUGCUACACAUCGUAUGUACCGAAUCGGGGUUUUUUUGGUUUUUUUGGGGUUUUUUUGGGAAAGUAUUAUGUUACGCCGUUCGGAUCUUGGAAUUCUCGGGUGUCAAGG` is reported as 1.28.
With `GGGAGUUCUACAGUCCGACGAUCCACAGACAACACGCACCCACACAGACACAGAGGGAAGGGGUUGGGAUGGGAACAGGGUGCACAGCAGGGCGGGGUAGGACCCCAGCCCCUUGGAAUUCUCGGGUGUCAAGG` the log2 enrichment was 0.544.
For `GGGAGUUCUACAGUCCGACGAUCUGGAUAUGGUUAUAGAAGAAGUGGCCGAGAUAAAUAUGGCCCUCCUACUCGCACAGAGUACAGACUUAUUGUGGAGAAUUUGUCAAGUCGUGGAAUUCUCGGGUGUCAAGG`, the log2 enrichment was -1.59.
`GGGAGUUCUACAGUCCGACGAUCCCUGUGCUACACAUCGUAUGUACCGAAUCGGGGAAAAAGGGGUUUGGGGUUUUUUUGGGGAAAGUAUUAUGUUACGCCGUUCGGAUCUGCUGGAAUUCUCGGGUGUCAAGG` gave a log2 enrichment of 0.297.
`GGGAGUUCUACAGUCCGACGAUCCUCAAGUCCUGUGCUACACAUCGUAUGUACCGAAUCGGAGGAAAAAGGUUUGGAAAGUAUUAUGUUACGCCGUUCGGAUCUGCACUUCCAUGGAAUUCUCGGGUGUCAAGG` has a log2 enrichment of -0.452.
For `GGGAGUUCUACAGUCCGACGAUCUCAAGUCCUGUGCUACACAUCGUAUGUACCGAAUCGGUUUGGUUUGGGUUUGGGAAAGUAUUAUGUUACGCCGUUCGGAUCUGCACUUCCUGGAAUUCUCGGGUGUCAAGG`, the log2 enrichment was -1.1.

Block 3 — technique: RNA Bind-n-Seq; form: RNA; matrix: in vitro; concentration: not given; baseline: input RNA pool; reading: higher = stronger binding
Target: RING finger protein unkempt homolog, zinc fingers 1-6, GST-SBP tag (UNK, Homo sapiens, UniProt Q9C0B0, residues 30-357)
Setting: RNA with constant flanks, human and mouse sites, ends assumed
Construct (chain): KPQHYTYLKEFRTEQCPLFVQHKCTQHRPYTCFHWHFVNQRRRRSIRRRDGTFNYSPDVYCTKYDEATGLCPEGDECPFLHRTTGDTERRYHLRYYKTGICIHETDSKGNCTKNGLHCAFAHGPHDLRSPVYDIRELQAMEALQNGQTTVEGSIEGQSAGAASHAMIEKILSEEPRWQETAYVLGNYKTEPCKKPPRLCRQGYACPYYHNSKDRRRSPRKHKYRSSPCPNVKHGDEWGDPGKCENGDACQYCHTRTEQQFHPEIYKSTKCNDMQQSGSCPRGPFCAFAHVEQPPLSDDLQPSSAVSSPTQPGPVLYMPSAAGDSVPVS
`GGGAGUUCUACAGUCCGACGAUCUUAUUAUAGCUUUGAAAUAAAAAAUCGUGAGGGAAAAAAAAUCCAAUGAUUGUACUGUGGUUAGGAGUUUUAUUACCAAGACAUUUAUGUCACUUUUCUUUCCCUUGUCAUUUUGAGGGGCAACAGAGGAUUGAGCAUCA` gave a bound/input enrichment of 3.53 ratio.
With `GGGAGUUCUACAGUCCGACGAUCAAGGCACGGCUGACCUGCCCUUGCUGUAACAUGCGUAAAAAGGAUGCAGUACUUACCAAGUGUUUUCACGUUUUCUGCUUUGAGUGUGUGAAGACGCGCUAUGACACUCGCCAGCGCAAGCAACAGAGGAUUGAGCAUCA` the bound/input enrichment was 0.103 ratio.
`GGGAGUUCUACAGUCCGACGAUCGCAGCAGCCUCCACUGAGUUUGAGAAUGCUGAAUCUGAGGCUGAUUUCAGUAUCCAUUUCAAUAGGUUCAACCCUGAUGGGGAAGAGGAGGAUGUUACAGUACACGAAUGACGUUUCCUUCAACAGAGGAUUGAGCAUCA` has a bound/input enrichment of 0.0806 ratio.
`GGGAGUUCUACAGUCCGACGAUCGCUACCUCUGUUGCUGCCCGAGGUCUAGAUGUGAAACAUCUGAUUCUUGUAGUAAAUUAUAGCUGCCCCAACCAUUAUGAGGAUUAUGUACACAGAGCAGGGCGGACUGGAAGAGCAGGACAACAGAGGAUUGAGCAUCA` has a bound/input enrichment of 0.881 ratio.
For `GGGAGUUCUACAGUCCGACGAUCACAGGAAAAAGUGGACUGGCAGGAACAAUUAAUUUAAGUGAAAGACGUUUAUUUUUUACCACUGCCAGUGCUCAUUUAAAAGCUGGCUGCCCAAUGUUGGCUUUGGAAGUAUUAUCAAAGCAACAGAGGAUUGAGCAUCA`, the bound/input enrichment was 0.228 ratio.
`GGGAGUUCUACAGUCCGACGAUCCCUGUUGAGGAGGAUGUGCUAUGGGAGAGGCUGACUAGCACCAAGAAGGCGGUGAAAGCUGCUCUAGCCAAUGACUUUGACACACCGAGGGCAGUGAACACCAUCCUGGACCUUGUGCACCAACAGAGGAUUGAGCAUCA` gave a bound/input enrichment of 0.126 ratio.
`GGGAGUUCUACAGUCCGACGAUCCCUCGUACAAAUGGCAUGUGUUCAGUAUGCUAUAAAGAACAUCUUCAAAGACAGAAUAGUAGUAAUGGUAGAAUAAGCCCACCUGCAACCUCUGUCAGUAGUCUGUCUGAAUCUUUACCACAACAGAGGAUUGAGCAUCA` gave a bound/input enrichment of 0.641 ratio.

Block 4 — technique: protein-binding microarray; form: double-stranded DNA, one strand shown; matrix: in vitro; concentration: 250 nM; setting: 60-bp whole probe; together with: salmon DNA 0.4 mg/ml; baseline: random background probes; reading: higher = stronger binding; constant ends, left off below: GCCTAGCAC … GTCTTGATTCGCTTGACGCTGCTG
Target: Interferon regulatory factor 7, full length, phosphomimetic (IRF7, Homo sapiens, UniProt Q92985, residues 1-503, S101K/S471D/S472D/S475D/S476D/S477D/S483D/S484D/S487D)
Construct (chain): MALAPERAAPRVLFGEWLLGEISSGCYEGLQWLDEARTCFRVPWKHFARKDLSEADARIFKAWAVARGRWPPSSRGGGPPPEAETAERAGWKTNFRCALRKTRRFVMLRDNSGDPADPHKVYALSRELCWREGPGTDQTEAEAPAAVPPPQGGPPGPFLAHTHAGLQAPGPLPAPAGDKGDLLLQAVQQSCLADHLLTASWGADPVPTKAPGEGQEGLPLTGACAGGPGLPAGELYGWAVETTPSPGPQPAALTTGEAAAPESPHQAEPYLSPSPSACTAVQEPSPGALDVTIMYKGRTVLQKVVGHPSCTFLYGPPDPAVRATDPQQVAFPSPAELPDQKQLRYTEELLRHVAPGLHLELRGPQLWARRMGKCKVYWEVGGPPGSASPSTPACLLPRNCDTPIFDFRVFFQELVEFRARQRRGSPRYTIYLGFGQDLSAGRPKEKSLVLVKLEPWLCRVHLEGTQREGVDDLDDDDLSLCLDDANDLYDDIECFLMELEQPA
`CCTAGGGGCGGGGCCAAATGGTGCTAG` has a log fluorescence of 1.3 z-score.
With `GACGGTTCGGGTTTCGGGACGTGCTAG` the log fluorescence was 2.99 z-score.
The log fluorescence of `TTAGGTATCGGTTTCGTTTAGTGCTAG` is reported as 11.3 z-score.
The log fluorescence of `TCACTAATAAATATGAGACTGTGCTAG` is reported as 0.141 z-score.
The log fluorescence of `TGTCTTCCCCTCTCTTTCCAAGTGCTA` is reported as 1.75 z-score.
`GATGGCAGTGGAAATTTTACGTGCTAG` gave a log fluorescence of -0.83 z-score.
With `GACGAGTTCAGTATCGAGACGTGCTAG` the log fluorescence was 0.445 z-score.
`GAATTTCCCACTTTCACTTCGTGCTAG` has a log fluorescence of 5.66 z-score.
With `GACGGTCTCGGTTTCCGGACGTGCTAG` the log fluorescence was 7.52 z-score.
`GACGGTATCGGTACTGGGGACGTGCTA` has a log fluorescence of 0.123 z-score.
The log fluorescence of `TTAGGTCTCCTTTTCCTTTCGTGCTAG` is reported as 2.12 z-score.

Mixed results
`PhoQ, residues 284 288 289 292 302 303 TLMATV` gave a fold induction of 7.86 (PhoP, residues 12 14 15 18 19 IQFRS (Escherichia coli, UniProt P23836); Sort-seq, refers to: YFP reporter; E. coli; PhoQ-PhoP variant library, together with: 10 µM Mg2+; baseline: high Mg2+ state, higher = stronger signaling).

Some of these lines once more (block 2):
The log2 enrichment of `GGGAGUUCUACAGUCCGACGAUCCUGUGCUACACAUCGUAUGUACCGAAUCGGGGUUUUUUUGGUUUUUUUGGGGUUUUUUUGGGAAAGUAUUAUGUUACGCCGUUCGGAUCUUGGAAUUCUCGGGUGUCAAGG` is reported as 1.28.
With `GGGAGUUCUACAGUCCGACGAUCCACAGACAACACGCACCCACACAGACACAGAGGGAAGGGGUUGGGAUGGGAACAGGGUGCACAGCAGGGCGGGGUAGGACCCCAGCCCCUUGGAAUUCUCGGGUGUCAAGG` the log2 enrichment was 0.544.
For `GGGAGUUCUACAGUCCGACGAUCUGGAUAUGGUUAUAGAAGAAGUGGCCGAGAUAAAUAUGGCCCUCCUACUCGCACAGAGUACAGACUUAUUGUGGAGAAUUUGUCAAGUCGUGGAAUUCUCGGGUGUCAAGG`, the log2 enrichment was -1.59.
`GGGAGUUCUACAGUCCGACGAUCCCUGUGCUACACAUCGUAUGUACCGAAUCGGGGAAAAAGGGGUUUGGGGUUUUUUUGGGGAAAGUAUUAUGUUACGCCGUUCGGAUCUGCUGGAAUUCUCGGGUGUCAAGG` gave a log2 enrichment of 0.297.
`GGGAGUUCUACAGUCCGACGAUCCUCAAGUCCUGUGCUACACAUCGUAUGUACCGAAUCGGAGGAAAAAGGUUUGGAAAGUAUUAUGUUACGCCGUUCGGAUCUGCACUUCCAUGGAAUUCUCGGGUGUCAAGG` has a log2 enrichment of -0.452.
For `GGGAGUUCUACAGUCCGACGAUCUCAAGUCCUGUGCUACACAUCGUAUGUACCGAAUCGGUUUGGUUUGGGUUUGGGAAAGUAUUAUGUUACGCCGUUCGGAUCUGCACUUCCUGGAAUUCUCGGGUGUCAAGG`, the log2 enrichment was -1.1.
